Measurements pooled from the literature.
Numbered parts are unrelated; each lists some results of a single study.

Block 1 — method: protein binding microarray; molecule type: double-stranded DNA, one strand shown; sample: in vitro; tested at: not given; reference: not given; direction: higher = stronger binding; endpoint: E-score
Target: Histone acetyltransferase KAT6A, winged helix 2, GST fusion (KAT6A, Homo sapiens, UniProt Q92794, residues 85-181)
Setting: 8-mer, flanks averaged, mean of 2 arrays, mostly near background
Residues (chain): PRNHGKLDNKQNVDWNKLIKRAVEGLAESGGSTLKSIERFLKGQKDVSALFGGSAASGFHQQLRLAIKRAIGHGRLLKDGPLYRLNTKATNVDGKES
Sequence = GTCTCTTA; result = -0.0723
Sequence = ACAGGCTC; result = -0.00268
Sequence = ATAGCTGA; result = 0.0495
Sequence = CTGACCCA; result = -0.261

Block 2 — method: competition protein-binding microarray; molecule type: double-stranded DNA, one strand shown; sample: in vitro; tested at: 2 µM; added: Cbf1 competitor, 0.05 µM; direction: higher = stronger binding; endpoint: fluorescence intensity
Target: Phosphate system positive regulatory protein PHO4, full length, GST-tagged (PHO4, Saccharomyces cerevisiae, UniProt P07270, residues 1-312)
Setting: whole 60-bp probe, lowest competitor level
Construct (chain): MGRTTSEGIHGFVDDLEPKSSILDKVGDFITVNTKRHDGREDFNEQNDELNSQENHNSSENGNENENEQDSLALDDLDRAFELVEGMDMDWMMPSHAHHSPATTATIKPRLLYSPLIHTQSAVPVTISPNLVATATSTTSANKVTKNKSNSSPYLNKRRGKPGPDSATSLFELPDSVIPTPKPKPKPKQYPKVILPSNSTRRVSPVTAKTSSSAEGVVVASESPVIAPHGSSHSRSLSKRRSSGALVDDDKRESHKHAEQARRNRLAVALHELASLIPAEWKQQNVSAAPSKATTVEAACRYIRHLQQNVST
Sequence = TGGCGGCCGCCATCTCGCGTGAGATCGCCTTTGGACGTCTTGATTCGCTTGACGCTGCTG; result = 3110 a.u.
Sequence = GACCTCGTTATGGACAACGTGGTCGCTAGGGGTGGTGTCTTGATTCGCTTGACGCTGCTG; result = 13100 a.u.
Sequence = CATACCCAACCTTAGCACGTGTTTTAAGATATTTGTGTCTTGATTCGCTTGACGCTGCTG; result = 21000 a.u.

Block 3 — method: protein-binding microarray; molecule type: double-stranded DNA, one strand shown; sample: in vitro; tested at: 250 nM; setting: 60-bp whole probe; added: salmon DNA 0.4 mg/ml; reference: random background probes; direction: higher = stronger binding; endpoint: log fluorescence
Target: Interferon regulatory factor 7, full length, phosphomimetic (IRF7, Homo sapiens, UniProt Q92985, residues 1-503, S101K/S471D/S472D/S475D/S476D/S477D/S483D/S484D/S487D)
Target sequence (chain): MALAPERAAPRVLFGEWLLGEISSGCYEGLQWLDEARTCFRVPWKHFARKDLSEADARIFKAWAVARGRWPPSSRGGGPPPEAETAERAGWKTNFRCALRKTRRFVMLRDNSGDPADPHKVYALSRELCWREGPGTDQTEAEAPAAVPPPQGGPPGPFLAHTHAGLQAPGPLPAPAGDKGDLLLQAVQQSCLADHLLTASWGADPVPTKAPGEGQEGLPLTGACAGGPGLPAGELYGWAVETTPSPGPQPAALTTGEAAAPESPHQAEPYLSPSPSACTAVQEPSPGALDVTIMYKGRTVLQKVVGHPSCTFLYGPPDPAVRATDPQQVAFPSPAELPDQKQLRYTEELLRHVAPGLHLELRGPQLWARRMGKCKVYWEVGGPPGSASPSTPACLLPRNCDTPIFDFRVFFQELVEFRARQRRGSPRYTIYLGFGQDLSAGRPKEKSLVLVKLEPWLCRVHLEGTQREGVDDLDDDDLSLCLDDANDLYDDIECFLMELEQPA
Sequence = GCCTAGCACATGACCTCACTGCCTGACACGTGCTAGGTCTTGATTCGCTTGACGCTGCTG; result = -0.122 z-score
Sequence = GCCTAGCACTCAACTTTCTTAATGCTACTGTGCTAGGTCTTGATTCGCTTGACGCTGCTG; result = 0.627 z-score
Sequence = GCCTAGCACTTAGGTATCGGTAACGGTTAGTGCTAGGTCTTGATTCGCTTGACGCTGCTG; result = 0.392 z-score
Sequence = GCCTAGCACCGAGTTTTCTCTCCCATTCTGTGCTAGGTCTTGATTCGCTTGACGCTGCTG; result = 1.39 z-score

Single results of other studies
Molecule = PhoQ, residues 284 288 289 292 302 303 SNSSNI; target = PhoP, residues 12 14 15 18 19 NQGLL (Escherichia coli, UniProt P23836); assay = Sort-seq, refers to: YFP reporter; system = E. coli; setting = PhoQ-PhoP variant library, added: 10 µM Mg2+; scale = reference: high Mg2+ state, higher = stronger signaling; endpoint = fold induction; result = 1.91

Excerpt of the above (block 2):
Sequence = CATACCCAACCTTAGCACGTGTTTTAAGATATTTGTGTCTTGATTCGCTTGACGCTGCTG; result = 21000 a.u.
